Assay results collected from several papers.
Each line is one published result; not all experiments were run side by side. “And” joins repeats or separate records; there may be more than shown. ± marks the error that the study gave.

Structure (SMILES) = O=C(/C=C/C=C/C=C/C1CCCCC1)NC1=C[C@@](O)(/C=C/C=C/C=C/C(=O)NC2=C(O)CCC2=O)[C@@H]2O[C@@H]2C1=O; cell line = C32; test = cell growth, CellTiter-Glo; conditions = 78 h; measurement = GI50; value = 16.6 µM
Structure (SMILES) = CCn1cc(-c2cc(Cn3ccnc3)cc3c2CCN([C@H](c2cc(OC)ccn2)C2CC2)C3=O)c(C(F)(F)F)n1; cell line = Kasumi 1; test = cell growth, inhibitor; conditions = 120 h; measurement = EC50; value = 12.9 µM
Structure (SMILES) = O=C(O)CN(c1ccc(N(CC(=O)O)S(=O)(=O)c2cc3c(cc2Cl)OCCO3)c2ccccc12)S(=O)(=O)c1cc2c(cc1Cl)OCCO2; cell line = BV-2, Nrf2 knockdown; test = measured: Ho-1, Nqo1; conditions = 10 µM; how to read = relative to: control BV-2 cells; measurement = Ho-1 and Nqo1 up-regulation; value = decreased
Structure (SMILES) = CC/C(=N\NC(=O)NCc1cccc(O)c1)c1ccc(O)c(C)c1O; cell line = SK-OV-3; test = Western blot; system = 2D culture; conditions = 5 µM, 1 h, unit not given; how to read = relative to: β-actin; measurement = TAZ protein level; value = 1.43 ± 0.47
Structure (SMILES) = CC[C@@]1(O)C(=O)OCc2c1cc1n(c2=O)Cc2cc3c(CN(C)C)c(O)ccc3nc2-1; cell line = BT-16; test = cell viability, MTT; conditions = 10 µM, 72 h; measurement = inhibition; value = 92.5%
Structure (SMILES) = O=c1[nH]nc(OCCCc2ccc(Cl)cc2)c(NCc2cccnc2)c1Br; cell line = HEK-293T; test = RNA-seq GSEA, measured: Hallmark allograft rejection; conditions = concentration not given; how to read = direction not given; measurement = normalized enrichment score; value = -1.45
Structure (SMILES) = COc1cc2ncnc(Nc3ccc(Oc4ccccc4)cc3C)c2cc1OC.O=C(O)C(F)(F)F; cell line = MeWo (NF1 mutant); conditions = 3 µM, with: trametinib 0 nM; measurement = fractional effect; value = 0.171 and 0.222
Structure (SMILES) = COc1cnc2cccc(N3CCc4c(cc(Cn5ccnc5C)cc4-c4cn(C)nc4C(F)(F)F)C3=O)c2c1; cell line = PA-1; test = cell growth, inhibitor; conditions = 120 h; measurement = EC50; value = 0.104 µM
Structure (SMILES) = CCC1=C[C@@H]2CN(C1)Cc1c([nH]c3ccccc13)[C@@](C(=O)OC)(c1cc3c(cc1OC)N(C)[C@H]1[C@@](O)(C(=O)OC)[C@H](OC(C)=O)[C@]4(CC)C=CCN5CC[C@]31[C@@H]54)C2; cell line = BT-16; test = cell viability, MTT; conditions = 10 µM, 72 h; measurement = inhibition; value = 91.1%
Structure (SMILES) = CCc1c(-c2ccccc2)c(-c2ccccc2)nn1-c1ccccc1-c1cccc(OCC(=O)O)c1; cell line = mouse bone marrow macrophages; test = osteoclast formation; conditions = with: M-CSF + sRANKL; measurement = Hill slope; value = -1.02
Structure (SMILES) = CCN(CCO)CCCC(C)Nc1ccnc2cc(Cl)ccc12 (centres unmarked); cell line = human PBMC; test = qRT-PCR, measured: CXCL10 mRNA; conditions = 1000 nM, with: ssRNA; measurement = inhibition; value = 14 ± 24%
Structure (SMILES) = O=C1c2c(O)ccc(O)c2C(=O)c2c(NCCNCCO)ccc(NCCNCCO)c21; cell line = BT-16; test = cell viability, MTT; conditions = 10 µM, 72 h; measurement = inhibition; value = 91.2%
Structure (SMILES) = CC(C)NCC(O)c1ccc(O)c(O)c1 (centres unmarked); cell line = mouse ventricular cardiomyocytes; conditions = dose not given, 0.403 s; measurement = sarcomere length; value = 1.8 µm
Structure (SMILES) = Nc1cccc2c1C(=O)N(C1CCC(=O)NC1=O)C2=O (centres unmarked); cell line = MM1.S; test = XTT; conditions = 0.8 µM; measurement = viability; value = 38% and 29% and 33%
Structure (SMILES) = CCCCN1C[C@H](O)[C@@H](O)[C@@H](O)[C@H]1CO; cell line = sample F patient fibroblasts; test = Gb3 level lowering, LC-MS/MS, measured: Gb3 d18:1/24:1; conditions = 216 h; measurement = IC50; value = 8.3 µM
Structure (SMILES) = Nc1ccccc1NC(=O)c1ccc(CNc2nccc(-c3cccnc3)n2)cc1; cell line = BT-16; test = cell viability, MTT; conditions = 10 µM, 72 h; measurement = inhibition; value = 91.4%
Structure (SMILES) = O=P1(C2CCCCC2)CCCCC1; cell line = PC-3; test = annexin V/PI flow cytometry; conditions = IC50, 72 h; measurement = necrotic cells; value = 0.35%
Structure (SMILES) = CC1(C)Oc2ccc(CC3=C(c4ccc(O)cc4)C(=O)OC3=O)cc2CC1O (centres unmarked); cell line = RPTEC; test = Griess; conditions = 10 µg/mL, 24 h, with: LPS 1 µg/mL; how to read = relative to: LPS-treated cells; measurement = nitric oxide production decrease; value = ~35%
Structure (SMILES) = Cn1cc(-c2ccc(-c3cncc(Cl)c3N3CCC4(CCNC4=O)CC3)cc2)cn1; cell line = COLO 205; test = microarray, measured: FOSB; conditions = concentration not given, 6 h; how to read = relative to: untreated cells; measurement = fold change in expression; value = 2.13
Structure (SMILES) = C=Cc1c2[n-]c(c1C)/C=c1\[n-]/c(c(C)c1C=C)=C\c1[n-]c(c(CCC(=O)O)c1C)/C=c1\[n-]c(c(C)c1CCC(=O)O)=C2.[Sn+4]; cell line = SH-SY5Y; test = RNA-seq, measured: PTX3 mRNA; conditions = 5 µM, 5 h; how to read = relative to: untreated cells; measurement = fold change; value = 3.51
